Assay results from different studies.
Every numbered part comes from another study and shows a few of its results, in no order.

Series 1 — technique: RNA Bind-n-Seq; molecule type: RNA; sample: in vitro; tested at: 20 nM; notes: 6-mer, flanks averaged, single round; with: 150 mM LiCl; reference: input library; reading: higher = stronger binding
Target: TAR DNA-binding protein 43, full length, His tag (TARDBP, Homo sapiens, UniProt Q13148, residues 1-414)
`CCGCAC` — result for “6-mer enrichment (R)”: 0.929.
For `GUGAAU`, “6-mer enrichment (R)” read 1.24.
Under “6-mer enrichment (R)”, `GGGUUC` is recorded as 0.981.
For `CUAACG`, “6-mer enrichment (R)” read 0.798.
`GCUCUU`: “6-mer enrichment (R)” 0.918.
`CAAUGA` — result for “6-mer enrichment (R)”: 0.856.

Series 2 — technique: protein-binding microarray; molecule type: double-stranded DNA, one strand shown; sample: in vitro; tested at: 940 nM top; notes: 60-bp whole probe; with: salmon DNA 0.4 mg/ml; reference: random background probes; reading: higher = stronger binding
Target: Interferon regulatory factor 5, full length, phosphomimetic (IRF5, Homo sapiens, UniProt Q13568-2, residues 1-514, S451D/S453D/S456D/S462D)
Shared flanks, not repeated: GCCTAGCAC … GTGCTAGGTCTTGATTCGCTTGACGCTGCTG
`TCATTTCTGAATGTCTTACT`: “fitted relative affinity” 0.548 z-score.
`TTTATTTTCAGTATTACCTC` — result for “fitted relative affinity”: 2.03 z-score.
For `GACGATTTCAGTTTCGAGGC`, “fitted relative affinity” read 5.01 z-score.
For `TCATCTTCCTTCATGGCACT`, “fitted relative affinity” read 1.07 z-score.
Under “fitted relative affinity”, `TTAGATCTCAGGCTGGATTA` is recorded as -0.363 z-score.
`TCACTAATAAATATGAGACT`: “fitted relative affinity” 0.484 z-score.

Series 3 — technique: RNAcompete; molecule type: RNA; sample: in vitro; tested at: 20 nM; notes: 7-mer, probes averaged, single round; reference: mean of 7-mers; reading: higher = stronger binding
Target: PABPC1L2, full length, GST fusion (mouse, UniProt A0ABA7IW68)
Residues (chain): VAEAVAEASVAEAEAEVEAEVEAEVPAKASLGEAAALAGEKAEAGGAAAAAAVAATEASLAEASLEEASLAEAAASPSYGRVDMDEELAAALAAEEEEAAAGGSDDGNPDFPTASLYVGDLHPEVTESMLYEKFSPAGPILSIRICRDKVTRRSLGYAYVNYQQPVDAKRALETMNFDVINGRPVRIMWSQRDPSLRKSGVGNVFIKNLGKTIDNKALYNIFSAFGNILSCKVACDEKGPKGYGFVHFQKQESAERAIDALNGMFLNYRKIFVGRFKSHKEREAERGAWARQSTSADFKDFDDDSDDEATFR
The 7-mer Z-score of `ACAGUUC` is reported as -0.224.
The 7-mer Z-score of `CACCGGU` is reported as -0.0645.
`CAACCGA` gave a 7-mer Z-score of -0.0971.
For `UGAGUAA`, the 7-mer Z-score was 0.046.
`GCCUUUU` gave a 7-mer Z-score of -0.0808.

Other studies, line by line
The fold induction of `PhoQ, residues 284 288 289 292 302 303 TNSAEL` is reported as 8.64 (PhoP, residues 12 14 15 18 19 YHFSH (Escherichia coli, UniProt P23836); Sort-seq, item: YFP reporter; E. coli; PhoQ-PhoP variant library, with: 10 µM Mg2+; reference: high Mg2+ state, higher = stronger signaling).

Excerpt of the above (series 2):
Under “fitted relative affinity”, `TTAGATCTCAGGCTGGATTA` is recorded as -0.363 z-score.
`TCACTAATAAATATGAGACT`: “fitted relative affinity” 0.484 z-score.
